Published values from different studies.
Every numbered part comes from another study and shows a few of its results, in no order.

Study 1
Target: Prothrombin, mature alpha-thrombin (F2, Homo sapiens, UniProt P00734)
Method: aptamer microarray, sandwich
Form: DNA with 2'F-ANA
Medium: in vitro
Tested at: 200 nM
Notes: whole 15-mer aptamer, many near background
Added: Cy3 exosite-II aptamer, 400 nM
Reading: higher = stronger binding
Oligonucleotide: GGTTGGTGTGGTTGG
Modification | mean fluorescence intensity [a.u.]
2'F-ANA at 3 4 5 6 9 11 12 13 | 108
2'F-ANA at 3 5 6 8 10 11 12 13 15 | 58.5
2'F-ANA at 4 5 6 7 8 10 11 13 | 47.7
2'F-ANA at 1 5 6 9 10 12 13 14 | 49.2
2'F-ANA at 1 5 8 10 14 15 | 59.9
2'F-ANA at 1 2 3 8 9 10 11 12 14 15 | 122
2'F-ANA at 1 3 6 10 12 14 | 60.8
2'F-ANA at 1 2 5 8 11 | 52.4
2'F-ANA at 2 8 9 10 14 15 | 87.1
2'F-ANA at 1 2 3 5 6 7 9 11 12 13 15 | 74.4
2'F-ANA at 1 6 8 13 | 156
2'F-ANA at 2 3 4 6 9 10 11 13 15 | 148
2'F-ANA at 1 2 4 10 11 12 13 | 53
2'F-ANA at 1 3 4 6 8 9 10 13 | 56.2
2'F-ANA at 1 4 6 7 8 9 10 12 13 | 74.9
2'F-ANA at 1 2 3 4 5 6 13 | 234
2'F-ANA at 1 4 5 6 11 12 15 | 74.1
2'F-ANA at 3 4 5 6 7 8 9 11 12 14 15 | 65.4
2'F-ANA at 1 4 5 8 11 15 | 50.9
2'F-ANA at 1 2 6 8 9 10 13 14 15 | 49.4
2'F-ANA at 3 8 10 11 13 14 15 | 336
2'F-ANA at 1 2 4 5 7 8 9 13 14 | 45.8
2'F-ANA at 2 3 5 7 9 10 14 | 82.6

Study 2
Organism: Saccharomyces cerevisiae
Observed: cell growth
Method: competitive growth deep sequencing
Form: peptide
Notes: peptide tiling library
Added: cyclin E2-Cln2 fusion
Reading: direction not given
Molecule | enrichment score
NLEPNAEFDKRTEFIT | 0.124
DSGFCLDSPGPLDSKE | 1.19
NCKKRRALDFLSRLPL | -1.23
ELGMEHCEKFEISETS | 1.24
VRDLSYRLVFLACCVA | -0.32
VEEEFFALRKRTPSAG | 0.402
ALTMEALEDPSPELME | 1.25
NARRSLNFGGSTGT | 0.369
TQERKQIHCLSEDELS | 0.066
IPDRSTKPVVFSPT | 0.734
IFNKPECGRVQRAIFQ | -0.769
NRLLKLFTRCLTPLVP | -0.963
LFVPQRKLEVSTEDVH | -0.371
DSDSDSEGGAAGGEAD | 2.62
RRRRLLFWDKETQI | -2.01
EAAPPTQEAQGETEPT | 0.692
RRRIKLPESDSSED | 2.42
RNRGPKLNAMLRLGVL | -1.27
SGYLTDENEVGFRG | 0.56
TLPYDLACTGGDFVLF | 1.13
FREFEVEKQTAEETGL | 0.752
AIRKMREDRWAVIAKM | -0.566

Study 3
Target: RNA binding protein fox-1 homolog 2, RRM domain, GST-SBP tag (RBFOX2, Homo sapiens, UniProt O43251-10, residues 100-194)
Method: RNA Bind-n-Seq
Form: RNA
Medium: in vitro
Tested at: 365 nM
Notes: natural RNA segment, single round, ends assumed
Relative to: no-protein control
Reading: higher = stronger binding
Construct (chain): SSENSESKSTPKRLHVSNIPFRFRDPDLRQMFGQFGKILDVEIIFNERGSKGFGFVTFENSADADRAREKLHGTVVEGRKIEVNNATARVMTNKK
Oligonucleotide | RBNS enrichment (R)
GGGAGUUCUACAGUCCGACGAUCCAUUUAGAAGUUAGAACAGAAAACAAAAAUGCCAGUCAGGCCUCUUCUCCCCAGGUGUACCAUUUUAGCAUAUGCAUUAUGUGAUUGGAAUUGAGGCAUUUUAGUGGACAUGGAAUUCUCGGGUGCCAA | 0.712
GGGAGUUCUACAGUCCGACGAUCUUUACGACACUAACAGGACUGCAUAGAGGCUUUUUCAGCAUUACUGUAUUGUCUCCGGCCACACUGGCAAGAUCAUCAUUAGAAAUGGAAAUGACAUUUGAAAGCCAUUAUGGAAUUCUCGGGUGCCAA | 0.346
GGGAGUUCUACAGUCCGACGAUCGGCCAAUAAGGUAUCUUGACUUUAUCAAAGUAGAAGAGAGGGUCACUUCGGAGUCAAAUCAUACACUAGGCCUUUGAUGCUUUAAUUCUUCUUCAGUUCAUUAAAAGUAAUGGAAUUCUCGGGUGCCAA | 0.763
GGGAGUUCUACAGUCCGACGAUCUUGUAAAUGCUAAUUUUUUAGGACUCUACUAGUUGGCAUACGAAAAUAUAUAAGGAUGGACAUUUUAUCGUCUCAUAGUCAUGCUUUUUGGAAAUUUACAUCAUCCUCAAUGGAAUUCUCGGGUGCCAA | 0.566
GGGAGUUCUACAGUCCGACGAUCCUUGAAUUUUAGGGACUUUAAUUCACCCCUCCUUCAAUACAACUUUCCCCCUUCUUGUUUGCACAUGCCAAGAUAACUGCUUUUAUGCAGGCUGUACCCCCUUGAAAAAUUGGAAUUCUCGGGUGCCAA | 1.83
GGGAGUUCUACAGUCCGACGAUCAAGCUGGAGAAUAAACAGGUACUGUGAUUGCUGGAAUAUUUCUGCAUAUACCUGAAGGUUAACACUCAGGAUACACAAACCUCUACAGACCUUAGAAUCCCAUCUCUAUUUGGAAUUCUCGGGUGCCAA | 0.286
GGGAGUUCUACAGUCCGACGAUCCACUAGAAUAAUUGAGCAGAGGCUGGGGUCAUCUUUUGUGACCCGAGAAAUCCCAGGCCAGAACAGCUGGAGCUCUUAUGUAGCACACAAGGCUCGAACCAGCACCGAAUUGGAAUUCUCGGGUGCCAA | 0.563
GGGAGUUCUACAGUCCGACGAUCAUAUGCCCAAGCUAUGCCUUGUCCUCUUGUCCUGUUUGCAUUUCACUGGGAGCUUGCACUAUGCAGCUCCAGUUUCCUGCAGUGAUCAGGGUCCUGCAAGCAGUGGGGAAUGGAAUUCUCGGGUGCCAA | 0.338
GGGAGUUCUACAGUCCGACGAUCCCGGCAAAUUAUGUGGAGGCGAUCCAGUGAUGAGUCGGGGACAGGCCAGCGGGGGGACGGAGGCGGCGGGCCCAGGAGCCUCAGCCAGCCACGUGGGCAUCCACUCCUUUUGGAAUUCUCGGGUGCCAA | 0.474
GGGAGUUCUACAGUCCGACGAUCCCCCCACACGUGCAGCCCGGGCUGCCUCCAGGGUCUGGCUGAGUGGGAUCAGGUGGCCCUCCAACUCAGCACAGGAAAUAAGUAGAAACAUUUCAGCAGGCCACCUCCCCUGGAAUUCUCGGGUGCCAA | 0.382
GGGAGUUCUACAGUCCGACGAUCGACCCCACGCUCUCCCAACGCCCAGACUAUGUGGAGCUGCCAAGCCCCUGUCUGGGCACCUCUGCCCUGCCUGUCUGCUGCCCGGAUCCUCCUCACUUAGCACCUAGGGGUGGAAUUCUCGGGUGCCAA | 1.66
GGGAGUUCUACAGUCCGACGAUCCCUGUUGGACAGGAUUGAUUGUUCGCAGUCUUAGACCAACACUUCAGUCAGAAAUGUUACUGGGAGGAGGAAAGGAAAAUCACUUUUUUUCCUCCAUGUGGAAAUGAGGAUGGAAUUCUCGGGUGCCAA | 0.242

Study 4
Target: Ras GTPase-activating protein-binding protein 1, C-terminal RGG region (G3BP1, Homo sapiens, UniProt Q13283)
Chain of UniProt Q13283 (whole entry, looked up): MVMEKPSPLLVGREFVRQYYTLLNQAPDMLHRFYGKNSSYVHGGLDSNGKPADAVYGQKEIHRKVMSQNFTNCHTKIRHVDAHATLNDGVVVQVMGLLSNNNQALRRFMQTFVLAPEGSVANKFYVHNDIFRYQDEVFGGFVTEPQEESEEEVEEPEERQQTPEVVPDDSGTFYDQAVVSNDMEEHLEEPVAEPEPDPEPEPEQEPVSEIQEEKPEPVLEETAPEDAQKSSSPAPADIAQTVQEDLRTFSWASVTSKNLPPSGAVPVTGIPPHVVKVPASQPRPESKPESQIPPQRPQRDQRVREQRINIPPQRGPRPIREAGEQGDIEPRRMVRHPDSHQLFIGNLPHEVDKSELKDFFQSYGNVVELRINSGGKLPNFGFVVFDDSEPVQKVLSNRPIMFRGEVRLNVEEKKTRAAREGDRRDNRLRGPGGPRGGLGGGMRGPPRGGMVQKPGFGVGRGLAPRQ
Method: RNA Bind-n-Seq
Form: RNA
Medium: in vitro
Tested at: 1 µM
Notes: whole 134-nt RNA, ends assumed
Added: 150 mM KCl
Relative to: input library
Reading: higher = stronger binding
Oligonucleotide | log2 enrichment
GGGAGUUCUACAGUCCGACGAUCAGUCCUGUGCUACACAUCGUAUGUACCGAAUCGGGUUUUUGGGAAAGGGUUUUUGGGAAAGUAUUAUGUUACGCCGUUCGGAUCUGCACUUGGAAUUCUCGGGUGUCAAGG | 0.814
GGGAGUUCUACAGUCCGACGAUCACCAUGCAGGUGGGCAUCUUUGGGAAGUGGGGCAAGGAGGGGAUAGGGAGGGGGGUAACACUUUGGGAACAGGUGGUCCCAGGUCGUUUCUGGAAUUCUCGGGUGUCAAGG | -0.92
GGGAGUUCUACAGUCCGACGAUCUAACUUUAGAGGAGGAUCUGAUGGAUAUGGCAGUGGCCGUGGAUUUGGGGAUGGCUAUAAUGGGUAUGGAGGAGGACCUGGAGGUGGCAAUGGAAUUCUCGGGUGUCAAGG | -0.52
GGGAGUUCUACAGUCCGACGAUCUGGCCCUGGUGGCAUGCGGGGAGGAAGAGGUGGCCUCAUGGAUCGUGGUGGUCCCCGUGGAAUGUUCAGAGGUGGCCGUGGUGGAGACAGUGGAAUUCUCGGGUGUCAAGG | 1.83
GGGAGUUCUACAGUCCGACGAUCUAACUUUAGAGGAGGAUCUGAUGGAUAUGGCAGUGGACGUGGAUUUGGGGAUGGCUAUAAUGCGUAUGGAGGAGGACCUGGAGGUGGCAAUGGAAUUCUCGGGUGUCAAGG | -0.568
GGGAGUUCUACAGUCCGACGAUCUCAAGUCCUGUGCUACACAUCGUAUGUACCGAAUCGGUUUGGGUUUGGGUUUGGGAAAGUAUUAUGUUACGCCGUUCGGAUCUGCACUUCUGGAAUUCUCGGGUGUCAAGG | -1.05
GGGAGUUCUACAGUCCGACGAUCUGGAACAGCAGCUGCCACUCAGGCGUAAUUCCCACCUAGAGGAGAGUUUCACAUCCACCGAAGAAUCUUCCGAAGAAAAUGUCAACUUUUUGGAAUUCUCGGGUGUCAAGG | -0.296
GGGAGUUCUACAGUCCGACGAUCCACAGACAACACGCACCCACACAGACACAGAGGGAAGGGGUUGGGAUGGGGACAGGGUGCACAGCAGGGCGGGGUAGGACCCCAGCCACUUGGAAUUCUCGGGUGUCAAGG | -1.03
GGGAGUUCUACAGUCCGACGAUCUUUCUCCAAGGACAUCAAGGUGCCCAAGAGCCGCUACCUGGGCUACAUCAAGGACUACGAGGGAGCGACGCUGAUGGAGUGUGAGCUGAAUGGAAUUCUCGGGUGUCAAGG | -1.71
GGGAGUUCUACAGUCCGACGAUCAGUCCUGUGCUACACAUCGUAUGUACCGAAUCGGGAGGGAAAAAGGGUUUUUUUGGGAAAGUAUUAUGUUACGCCGUUCGGAUCUGCACUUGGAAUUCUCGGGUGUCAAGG | 0.482
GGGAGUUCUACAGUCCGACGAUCCCUGUGCUACACAUCGUAUGUACCGAAUCGGGUUUUUUGGGGUUUUUUGGGUUUUUUGGGGAAAGUAUUAUGUUACGCCGUUCGGAUCUGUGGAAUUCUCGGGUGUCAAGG | -1.16
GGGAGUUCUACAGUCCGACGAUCUCCUGUGCUACACAUCGUAUGUACCGAAUCGGGAAAAAAGGGAAAAAAGGGGAAAAAAGGAAAGUAUUAUGUUACGCCGUUCGGAUCUGCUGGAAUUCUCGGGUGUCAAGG | -1.36
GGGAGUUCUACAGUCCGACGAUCCCUGUGCUACACAUCGUAUGUACCGAAUCGGGGAAAAAAAGGAAAAAAAGGGAAAAAAAGGAAAGUAUUAUGUUACGCCGUUCGGAUCUGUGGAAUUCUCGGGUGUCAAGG | -1.71
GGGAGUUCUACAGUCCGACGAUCUGGCCCUGGUGGCAUGCGGGGAGGAAGAGGUGGCCUCAUGGAUCGUGGUGGUCCCGGUGGAAUGUUCAGAGGUGGCCGUGGUAGAGACAGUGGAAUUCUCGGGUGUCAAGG | 4.12

Other studies, line by line
Substance | target | test | test system | setting | scale | endpoint | value
PhoQ, residues 284 288 289 292 302 303 SQSLSM | PhoP, residues 12 14 15 18 19 SYFRT (Escherichia coli, UniProt P23836) | Sort-seq, measured: YFP reporter | E. coli | PhoQ-PhoP variant library, added: 10 µM Mg2+ | relative to: high Mg2+ state, higher = stronger signaling | fold induction | 0.944

Repeated from above (study 4):
Oligonucleotide | log2 enrichment
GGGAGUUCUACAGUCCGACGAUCAGUCCUGUGCUACACAUCGUAUGUACCGAAUCGGGAGGGAAAAAGGGUUUUUUUGGGAAAGUAUUAUGUUACGCCGUUCGGAUCUGCACUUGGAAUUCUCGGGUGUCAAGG | 0.482
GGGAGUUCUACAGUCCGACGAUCCCUGUGCUACACAUCGUAUGUACCGAAUCGGGUUUUUUGGGGUUUUUUGGGUUUUUUGGGGAAAGUAUUAUGUUACGCCGUUCGGAUCUGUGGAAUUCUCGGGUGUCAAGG | -1.16
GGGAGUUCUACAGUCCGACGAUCUCCUGUGCUACACAUCGUAUGUACCGAAUCGGGAAAAAAGGGAAAAAAGGGGAAAAAAGGAAAGUAUUAUGUUACGCCGUUCGGAUCUGCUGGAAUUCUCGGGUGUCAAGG | -1.36
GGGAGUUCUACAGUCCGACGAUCCCUGUGCUACACAUCGUAUGUACCGAAUCGGGGAAAAAAAGGAAAAAAAGGGAAAAAAAGGAAAGUAUUAUGUUACGCCGUUCGGAUCUGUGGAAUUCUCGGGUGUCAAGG | -1.71
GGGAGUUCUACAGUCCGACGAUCUGGCCCUGGUGGCAUGCGGGGAGGAAGAGGUGGCCUCAUGGAUCGUGGUGGUCCCGGUGGAAUGUUCAGAGGUGGCCGUGGUAGAGACAGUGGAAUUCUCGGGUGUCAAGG | 4.12
